Assay results pooled from the literature.
Numbered parts are unrelated; each lists some results of a single study.
Chain of UniProt O14976 (whole entry, looked up): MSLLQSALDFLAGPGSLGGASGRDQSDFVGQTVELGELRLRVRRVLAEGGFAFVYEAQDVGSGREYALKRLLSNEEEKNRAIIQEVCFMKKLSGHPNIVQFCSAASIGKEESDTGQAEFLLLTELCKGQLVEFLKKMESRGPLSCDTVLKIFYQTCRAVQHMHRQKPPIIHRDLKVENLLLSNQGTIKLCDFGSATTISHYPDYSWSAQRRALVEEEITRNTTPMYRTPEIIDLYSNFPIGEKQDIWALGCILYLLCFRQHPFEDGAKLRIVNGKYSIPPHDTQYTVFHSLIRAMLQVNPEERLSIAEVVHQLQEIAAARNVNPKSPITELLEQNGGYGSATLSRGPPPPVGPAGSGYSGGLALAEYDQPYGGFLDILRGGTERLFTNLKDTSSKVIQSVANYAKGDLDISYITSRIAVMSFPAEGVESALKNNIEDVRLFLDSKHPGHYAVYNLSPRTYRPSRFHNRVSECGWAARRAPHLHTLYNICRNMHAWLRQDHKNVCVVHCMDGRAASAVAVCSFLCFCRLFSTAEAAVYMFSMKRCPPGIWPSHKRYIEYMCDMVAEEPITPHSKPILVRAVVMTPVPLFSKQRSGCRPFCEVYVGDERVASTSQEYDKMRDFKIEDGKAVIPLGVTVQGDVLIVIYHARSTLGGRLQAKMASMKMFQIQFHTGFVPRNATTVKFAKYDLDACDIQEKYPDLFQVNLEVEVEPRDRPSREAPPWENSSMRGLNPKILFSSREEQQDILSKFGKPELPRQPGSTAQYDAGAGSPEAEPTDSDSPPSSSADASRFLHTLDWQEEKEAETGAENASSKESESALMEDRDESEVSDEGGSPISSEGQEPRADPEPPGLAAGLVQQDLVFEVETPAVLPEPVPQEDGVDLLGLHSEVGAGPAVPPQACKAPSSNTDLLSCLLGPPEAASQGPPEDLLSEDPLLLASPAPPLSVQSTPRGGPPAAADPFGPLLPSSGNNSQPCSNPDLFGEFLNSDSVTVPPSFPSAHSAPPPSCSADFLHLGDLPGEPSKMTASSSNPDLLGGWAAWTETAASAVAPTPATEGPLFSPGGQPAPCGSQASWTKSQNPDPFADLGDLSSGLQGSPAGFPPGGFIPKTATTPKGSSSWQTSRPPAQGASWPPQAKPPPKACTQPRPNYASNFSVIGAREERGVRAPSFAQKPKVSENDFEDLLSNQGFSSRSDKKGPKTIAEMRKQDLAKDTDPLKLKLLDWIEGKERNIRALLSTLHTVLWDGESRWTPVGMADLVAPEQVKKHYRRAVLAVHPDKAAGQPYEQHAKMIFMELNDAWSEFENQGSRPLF
Chain of UniProt P19525 (whole entry, looked up): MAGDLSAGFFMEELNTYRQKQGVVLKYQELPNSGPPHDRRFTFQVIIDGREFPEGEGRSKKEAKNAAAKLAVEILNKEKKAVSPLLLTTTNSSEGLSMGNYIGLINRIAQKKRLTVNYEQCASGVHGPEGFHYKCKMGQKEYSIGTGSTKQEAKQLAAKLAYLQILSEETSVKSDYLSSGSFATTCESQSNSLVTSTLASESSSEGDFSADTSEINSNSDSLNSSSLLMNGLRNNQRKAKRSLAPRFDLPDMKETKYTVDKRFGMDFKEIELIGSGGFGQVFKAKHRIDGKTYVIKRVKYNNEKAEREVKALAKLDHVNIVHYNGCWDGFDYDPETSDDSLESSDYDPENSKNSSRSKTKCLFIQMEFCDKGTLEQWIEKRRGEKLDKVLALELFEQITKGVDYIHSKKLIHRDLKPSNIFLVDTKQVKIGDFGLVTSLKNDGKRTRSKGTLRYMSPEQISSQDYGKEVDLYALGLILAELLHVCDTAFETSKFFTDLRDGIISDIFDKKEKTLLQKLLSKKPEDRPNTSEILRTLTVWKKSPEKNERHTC
Chain of UniProt Q8WU08 (whole entry, looked up): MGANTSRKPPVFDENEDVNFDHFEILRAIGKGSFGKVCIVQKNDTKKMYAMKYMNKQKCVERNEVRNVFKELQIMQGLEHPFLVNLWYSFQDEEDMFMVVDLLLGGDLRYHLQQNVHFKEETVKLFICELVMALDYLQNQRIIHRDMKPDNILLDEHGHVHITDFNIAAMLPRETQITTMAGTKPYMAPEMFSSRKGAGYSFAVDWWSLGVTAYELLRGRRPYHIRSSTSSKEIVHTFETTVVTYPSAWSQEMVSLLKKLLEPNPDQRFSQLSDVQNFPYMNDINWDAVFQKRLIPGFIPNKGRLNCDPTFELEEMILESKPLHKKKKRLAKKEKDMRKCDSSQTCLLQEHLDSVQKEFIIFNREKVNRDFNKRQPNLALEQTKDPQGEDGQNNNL

Study 1
Organism: Sarcocystis neurona
Observed: parasite growth
Tested at: 10 µM
Time: 96 h
Notes: first screen
Baseline: untreated
Measurement: log2 fold change
CN1CCN(C2=Nc3ccccc3Oc3ccc(Cl)cc32)CC1: -0.02
CC[C@H](C)C(=O)O[C@H]1C[C@H](O)C=C2C=C[C@H](C)[C@H](CC[C@@H](O)C[C@@H](O)CC(=O)O)[C@H]21: -0.05
NC(=O)N1c2ccccc2C=Cc2ccccc21: 0.21

Study 2
Compound: O=C(Nc1cnc(Oc2ccc(F)cc2)nc1)N1CCc2ncccc2[C@@H]1c1ccc(F)cc1
Observed: cell-free assay
Technique: competition with immobilised ligand
Tested at: 1 µM
Measurement: remaining binding
EIF2AK2 (Homo sapiens, UniProt P19525): 73%
FLT3 (Homo sapiens, UniProt P36888, ITD): 92%
FLT3 (Homo sapiens, UniProt P36888): 84%
STK32A (Homo sapiens, UniProt Q8WU08): 100%
Macrophage colony-stimulating factor 1 receptor, autoinhibited (CSF1R, Homo sapiens, UniProt P07333): 93%
GAK (Homo sapiens, UniProt O14976): 94%
Aurora kinase B (AURKB, Homo sapiens, UniProt Q96GD4): 80%

Study 3
Target: Beta-1 adrenergic receptor (ADRB1, Homo sapiens, UniProt P08588)
Chain of UniProt P08588 (whole entry, looked up): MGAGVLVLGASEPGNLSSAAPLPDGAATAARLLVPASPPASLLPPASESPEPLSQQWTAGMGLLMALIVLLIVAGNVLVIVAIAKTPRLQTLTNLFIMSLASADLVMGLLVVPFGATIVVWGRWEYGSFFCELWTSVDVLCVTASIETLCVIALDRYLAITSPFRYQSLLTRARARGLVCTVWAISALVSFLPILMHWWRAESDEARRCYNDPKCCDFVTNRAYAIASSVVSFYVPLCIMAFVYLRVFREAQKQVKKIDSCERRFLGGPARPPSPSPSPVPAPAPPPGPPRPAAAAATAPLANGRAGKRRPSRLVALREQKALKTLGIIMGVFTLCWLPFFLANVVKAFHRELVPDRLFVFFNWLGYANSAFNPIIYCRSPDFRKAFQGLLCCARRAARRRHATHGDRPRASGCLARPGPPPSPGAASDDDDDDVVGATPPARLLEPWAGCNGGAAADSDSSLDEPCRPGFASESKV
Mode: antagonist
Measurement: IC50
CC(C)N1CCN(c2cc(-c3ccccc3)c3ccccc3n2)CC1: ≥ 100 µM
CC(O)CN1CCN(c2cnc3ccccc3n2)C(C)C1 (centres unmarked): ≥ 100 µM
Cn1c(C(O)C(O)c2ccccc2)nc2ccccc21 (centres unmarked): ≥ 100 µM
Cc1ccc2c(C(=O)N3CCC(F)(F)CC3)cc(-c3cnn(C(C)C)c3)nc2c1: ≥ 100 µM
CCN(CC)c1ccc(C(=C2C=CC(=[N+](CC)CC)C=C2)c2cc(S(=O)(=O)O)ccc2S(=O)(=O)[O-])cc1: 20 µM
Cc1cc2nc3ccc(N(C)C)cc3[s+]c2cc1N: 35.5 µM

Study 4
Target: Tyrosine-protein kinase JAK1 (JAK1, Homo sapiens, UniProt P23458)
Chain of UniProt P23458 (whole entry, looked up): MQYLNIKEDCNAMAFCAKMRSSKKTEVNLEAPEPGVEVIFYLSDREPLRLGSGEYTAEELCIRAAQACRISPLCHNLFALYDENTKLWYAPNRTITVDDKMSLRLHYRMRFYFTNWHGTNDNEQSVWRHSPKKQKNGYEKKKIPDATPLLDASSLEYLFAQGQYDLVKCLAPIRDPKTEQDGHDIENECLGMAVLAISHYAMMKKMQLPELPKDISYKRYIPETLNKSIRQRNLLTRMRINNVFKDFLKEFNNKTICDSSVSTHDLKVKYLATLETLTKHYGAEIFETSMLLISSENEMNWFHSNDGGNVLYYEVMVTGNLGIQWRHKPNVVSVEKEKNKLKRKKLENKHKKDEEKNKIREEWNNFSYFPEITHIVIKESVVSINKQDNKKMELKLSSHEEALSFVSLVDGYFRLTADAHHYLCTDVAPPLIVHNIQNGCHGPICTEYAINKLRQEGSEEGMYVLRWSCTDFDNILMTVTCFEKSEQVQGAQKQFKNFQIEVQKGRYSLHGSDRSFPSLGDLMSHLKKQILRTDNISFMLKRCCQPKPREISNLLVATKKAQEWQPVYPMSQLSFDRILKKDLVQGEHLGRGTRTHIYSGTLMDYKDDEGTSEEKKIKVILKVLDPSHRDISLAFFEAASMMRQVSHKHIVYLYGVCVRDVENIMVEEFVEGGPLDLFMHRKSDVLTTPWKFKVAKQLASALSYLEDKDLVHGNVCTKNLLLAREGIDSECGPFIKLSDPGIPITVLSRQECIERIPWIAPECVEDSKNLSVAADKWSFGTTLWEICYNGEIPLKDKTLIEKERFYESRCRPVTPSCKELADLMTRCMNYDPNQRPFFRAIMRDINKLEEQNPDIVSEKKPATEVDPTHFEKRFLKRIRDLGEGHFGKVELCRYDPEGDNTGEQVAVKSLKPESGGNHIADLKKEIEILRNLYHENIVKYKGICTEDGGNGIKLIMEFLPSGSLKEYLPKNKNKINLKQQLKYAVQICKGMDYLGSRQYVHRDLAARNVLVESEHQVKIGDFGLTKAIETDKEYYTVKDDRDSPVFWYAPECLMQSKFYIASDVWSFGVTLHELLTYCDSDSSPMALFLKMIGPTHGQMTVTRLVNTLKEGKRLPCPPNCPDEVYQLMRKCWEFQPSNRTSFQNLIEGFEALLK
Observed: enzyme activity
Mode: inhibitor
Tested at: 0.5 µM
Baseline: control
Measurement: remaining activity
CC(C)[C@H](CO)Nc1nc(Nc2cc(N)cc(Cl)c2)c2ncn(C(C)C)c2n1: 101%
Cc1nc(-c2ccccc2)c(-c2ccncc2)o1: 103%
C#Cc1cccc(Nc2ncnc3cc(OCCOC)c(OCCOC)cc23)c1: 91.2%
COc1cc2ncnc(Nc3ccc(Oc4ccccc4)cc3)c2cc1OC: 105%
OCC(O)CCON=C1C(c2c(O)[nH]c3ccccc23)=Nc2ccccc21 (centres unmarked): 25.9%
Cc1ccc(Nc2nccc(N(C)c3ccc4c(C)n(C)nc4c3)n2)cc1S(N)(=O)=O: 104%
O=S(=O)(c1cccc2cnccc12)N1CCCNCC1: 111%
O=C1NC(=O)C(c2cn(CCCn3ccnc3)c3ccccc23)=C1Nc1ccccc1: 82.1%
O=C(O)c1ccc2c3c1cccc3c(=O)n1c3ccccc3nc21: 98.4%
O=c1c2ccccc2[nH]c(=S)n1CCN1CCC(=C(c2ccc(F)cc2)c2ccc(F)cc2)CC1: 105%
Cc1ccc(NC(=O)c2ccc(CN3CCN(C)CC3)cc2)cc1Nc1nc(-c2cccnc2)cs1: 98.8%
Cn1c2ccccc2c2c3c(c4c5ccccc5n(CCC#N)c4c21)CNC3=O: 20.2%
NCCNc1ncc(C(N)=O)c(Nc2cccc(C(F)(F)F)c2)n1: 96.9%

A few entries again (study 3):
CCN(CC)c1ccc(C(=C2C=CC(=[N+](CC)CC)C=C2)c2cc(S(=O)(=O)O)ccc2S(=O)(=O)[O-])cc1: 20 µM
Cc1cc2nc3ccc(N(C)C)cc3[s+]c2cc1N: 35.5 µM
